Published values gathered from unrelated publications.
Parts stem from different laboratories: compare values within a part only. Positions count from the first letter of the parent shown.

Series 1
Target: RNA binding protein fox-1 homolog 2, RRM domain, GST-SBP tag (RBFOX2, Homo sapiens, UniProt O43251-10, residues 100-194)
Technique: RNA Bind-n-Seq
Form: RNA
Medium: in vitro
Concentration: 365 nM
Setting: natural RNA segment, single round, ends assumed
Reference: no-protein control
Direction: higher = stronger binding
All sequences stand within: GGGAGUUCUACAGUCCGACGAUC … UGGAAUUCUCGGGUGCCAA
Target sequence (chain): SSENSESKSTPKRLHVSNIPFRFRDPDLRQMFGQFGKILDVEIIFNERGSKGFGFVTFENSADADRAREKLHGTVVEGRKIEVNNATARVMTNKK
Strand | RBNS enrichment (R)
CCAUGUUUUCCUAUUCAUCUUAGUUCAUUUAGGGAUAGUCUGGGUUUCCCAGAAAAUGUGGAGCCAGAGAGAAACAGGCGGACGUGUGUUAGUUACCACGAUGGUGUUUA | 0.472
UUAGACUUCCCACUGUUCUGAAAGGAGACAUUGCUCUAUGUCUGCCUUCGACCACAGCAAGCCAUCAUCCUCCAUUGCUCCCGGGGACUCAAGAGGAAUCUGUUUCUCUG | 0.329
AUCAUCUUGAAUCCUCCACAAAUACAGAUACAGUCCCAAGGGAGGUAGUCGUAGAAAUGGAAGACGCCAGCCCUGCGCAGCCUGCAGGGACAUCCGCCAGGCUUCCCCUC | 0.321
GAACUGGAUGCACUGGCCAUAGCUAGCAUCAAUGUCCCCGUGUUUCCAGGAACCCCUGCCAUGAGGCCAUCAUAGAUCCAGACUCGGGAUGUGGGCUCCAAACCAGAAUA | 0.608
CAUCCUGUAUAAGCACUGAGAAAGCAAAAACAAUAACACUAAAAUUUUAGGCACUCUUAAACCAUCUGCCUCUAAAAGCAUUGGAUGUAGCAUUGCGCAAUUAGGUUGUU | 1.37
CCAAUGGCUCAUGCCUGUAAUCCCAACACUUUGGGAGGCCAAGGUGGGAGGAUGGCUUGUGUCCAGAAGUUCGAGACCAGCCUGGACAACAUAGUGAGAUCCUAUCUCUA | 0.227
UUGGGAACAUGUGGGGAAUUGUAUAUUGCGCUGAAUUAACUUCUCCCGCCUCUUGUAAUGCUCUGGUGGGUUCUUGUUUGGGAAUGCGAUAUUUUGUGGCUGGUUUAGCU | 6.79
AAGCUGCAUAUAACUAGCAAUAACUACAUUGAACGGUGUGCAUUGUUCAUGAUUGUUGUGUUUUAAGACUUGUAUAUAAACUGCUUUUUCCAAACUCUGUAUAACUUUUA | 0.341
UUACUAACUUGGUGUCGCUACCCAGGACACAUUGUCUACAGUAAAUGGAAUGUGAGCCACAUCUGUACUCUAAACUUUCCUAAUAACUGUGUUAAACAAGAACAACAAAA | 0.328
ACAAUUUAAUGUAUUCAGUUUUGACUGUGCUUCAUAUCAUGUACCUCUCUAGUCAAAGUGGUAUUACAGACAUUCAGUGACAAUGAAUCAGUGUUAAUUCUAAAUCCUUG | 0.358
GAUGGAAAGAUAUAAUUAACGAUCAAAGAGCUCUAAGAAAAUUGCAAAGAAGCCUUAAUGUUCAAGCUUUAGAAAGAUCAGAGCAAUUUUUCUCUUUCAGUCCAAACUAA | 0.713
AAAACCAGCGAGUGUCGUGGUGCAGGCAGGCCCUGUGGCCUGCUGGGCUGAGGGAAGUCAGAGCCCCAGGGCGCCACGAAGCAGCCACUGGGAUACCCCACCCCGCCCCG | 0.317

Series 2
Target: Ras GTPase-activating protein-binding protein 1, C-terminal RGG region (G3BP1, Homo sapiens, UniProt Q13283)
Sequence of UniProt Q13283 (whole entry, looked up): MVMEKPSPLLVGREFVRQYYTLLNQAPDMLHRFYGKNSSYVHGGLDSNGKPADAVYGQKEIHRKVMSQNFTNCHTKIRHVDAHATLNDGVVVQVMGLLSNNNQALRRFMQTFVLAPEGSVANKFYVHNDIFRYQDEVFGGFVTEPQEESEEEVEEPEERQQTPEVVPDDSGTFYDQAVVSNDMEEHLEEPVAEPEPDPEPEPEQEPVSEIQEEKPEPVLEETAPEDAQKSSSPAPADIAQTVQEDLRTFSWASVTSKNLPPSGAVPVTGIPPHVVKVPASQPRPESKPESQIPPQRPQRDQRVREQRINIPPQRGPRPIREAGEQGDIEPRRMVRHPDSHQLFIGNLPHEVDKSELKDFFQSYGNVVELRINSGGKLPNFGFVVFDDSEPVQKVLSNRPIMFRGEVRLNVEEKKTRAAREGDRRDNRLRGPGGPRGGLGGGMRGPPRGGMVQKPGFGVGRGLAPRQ
Technique: RNA Bind-n-Seq
Form: RNA
Medium: in vitro
Concentration: 1 µM
Setting: whole 134-nt RNA, ends assumed
With: 150 mM KCl
Reference: input library
Direction: higher = stronger binding
All sequences stand within: GGGAGUUCUACAGUCCGACGAUC … UGGAAUUCUCGGGUGUCAAGG
Strand | log2 enrichment
CACAGACAACACGCACCCACGCAGACACAGAGGGAAGGGGUUGGGAUGGGGACAGGGUGCACAGCAGGGCGGGGUAGGACCCCAGCCCCU | -0.0924
CCUCAAGUCCUGUGCUACACAUCGUAUGUACCGAAUCGGGGCGGGCGGCGGGAAAGUAUUAUGUUACGCCGUUCGGAUCUGCACUUCCAG | -0.667
CAAGUCCUGUGCUACACAUCGUAUGUACCGAAUCGGGAAAAAGGGAAAGGGUGGGAAAGUAUUAUGUUACGCCGUUCGGAUCUGCACUUC | 1.8
CCUGUGCUACACAUCGUAUGUACCGAAUCGGGUUUUUUGGGGUUUUUUGGGUUUUUUGGGGAAAGUAUUAUGUUACGCCGUUCGGAUCUG | -1.16
CAAGUCCUGUGCUACACAUCGUAUGUACCGAAUCGGGAGGGUGGGAAAAAAAGGGAAAGUAUUAUGUUACGCCGUUCGGAUCUGCACUUC | 0.341
UCCUGUGCUACACAUCGUAUGUACCGAAUCGGGGAAAAAGGGGAAAAAGGGAAAAAGGGAAAGUAUUAUGUUACGCCGUUCGGAUCUGCA | -0.356
CUCAAGUCCUGUGCUACACAUCGUAUGUACCGAAUCGGGCGGGGCGGGGCGGGAAAGUAUUAUGUUACGCCGUUCGGAUCUGCACUUCCA | 2.54
UGGCCCUGGUGGCAUGCGGGGAGGAAGAGGUGGCUUCAUGGAUCGUGGUGGUCCCGGUGGAAUGUUCAGAGGUGGCCGUGGUGGAGACAG | 2.14
AGUCCUGUGCUACACAUCGUAUGUACCGAAUCGGAAAAAAAGGAAAAAAAGGUUUGGAAAGUAUUAUGUUACGCCGUUCGGAUCUGCACU | -2.53
UCAAGUCCUGUGCUACACAUCGUAUGUACCGAAUCGGGGUGGGGAGGGGUGGGGAAAGUAUUAUGUUACGCCGUUCGGAUCUGCACUUCC | 2.71
AGUCCUGUGCUACACAUCGUAUGUACCGAAUCGGGAGGGAAAAAGGGUUUUUUUGGGAAAGUAUUAUGUUACGCCGUUCGGAUCUGCACU | 0.482
AGUCCUGUGCUACACAUCGUAUGUACCGAAUCGGAAAAAGGAAAAAGGGAAAAAGGGGAAAGUAUUAUGUUACGCCGUUCGGAUCUGCAC | -1.82
UCCUGUGCUACACAUCGUAUGUACCGAAUCGGUUUUUUUGGUUUUUUUGGUUUUUUUGGGAAAGUAUUAUGUUACGCCGUUCGGAUCUGC | -0.628
UCAAGUCCUGUGCUACACAUCGUAUGUACCGAAUCGGUUUGGUUUUUGGAAAGGAAAGUAUUAUGUUACGCCGUUCGGAUCUGCACUUCC | -1.26

Series 3
Target: CREB3L1, bZIP domain (human)
Technique: DHFR protein complementation
Medium: yeast
Setting: single substitutions, most at no-binding floor
Reference: wild-type JUN-FOS pair
Direction: higher = stronger binding
Starting sequence: JUN, bZIP domain (human); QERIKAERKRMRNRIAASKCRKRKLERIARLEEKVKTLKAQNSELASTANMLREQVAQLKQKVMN; partner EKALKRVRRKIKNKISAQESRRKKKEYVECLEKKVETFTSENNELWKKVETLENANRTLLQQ
Change | binding fitness [natural log]
M51L | -1.35
V56A | -1.45
T37V | -1.41
A49C | -1.45
Q41N | -1.49
E44R | -1.47
V56L | -1.4
Q55G | -1.43
A49D | -1.39
M51E | -1.44
T48Y | -1.2
A49Q | -1.48
S43C | -1.51
V35G | -1.48
V35K | -1.4
T48D | -1.49

Series 4
Target: CCNB2, cyclin fold, Cln2 fusion (human)
Technique: yeast growth competition, sequencing
Medium: yeast
Setting: weak parent motif
Reference: not given
Direction: higher = stronger binding
Starting sequence: PKN2 docking peptide (human); DSTVTKLDFDLEP; partner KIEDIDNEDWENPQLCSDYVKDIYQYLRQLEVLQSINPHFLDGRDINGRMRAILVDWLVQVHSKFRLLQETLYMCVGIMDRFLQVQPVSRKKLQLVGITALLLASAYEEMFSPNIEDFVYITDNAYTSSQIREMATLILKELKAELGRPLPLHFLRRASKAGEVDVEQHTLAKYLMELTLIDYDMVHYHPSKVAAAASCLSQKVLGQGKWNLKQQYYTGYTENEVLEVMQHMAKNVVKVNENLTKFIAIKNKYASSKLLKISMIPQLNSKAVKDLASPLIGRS
Change | normalised enrichment score
V4A | 0.00938
K6A | -0.273
L11A | 0.262
T5A | 0.565
D10A | -0.73
S2A | 0.35
F9A | -0.514

Series 5
Target: Histone acetyltransferase KAT6A, winged helix 1, GST fusion (KAT6A, Homo sapiens, UniProt Q92794, residues 1-85)
Technique: protein binding microarray
Form: double-stranded DNA, one strand shown
Medium: in vitro
Concentration: not given
Setting: 8-mer, flanks averaged, mean of 2 arrays, mostly near background
Reference: not given
Direction: higher = stronger binding
Residues (chain): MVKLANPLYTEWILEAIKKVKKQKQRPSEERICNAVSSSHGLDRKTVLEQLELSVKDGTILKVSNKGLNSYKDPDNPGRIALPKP
Strand | E-score
TGACCCCA | -0.27
CGCATAGA | 0.0417
CTGAGAGA | -0.177
CCTCAAAC | -0.0913
ATTCCAAT | -0.112
GTAAGGAC | 0.0917
AGCGCGAC | 0.286
ACATAGTG | -0.0974
TATCAACA | -0.179
CTATTCTA | -0.178
ATAGGTTA | 0.0248
AGGGATAG | -0.0773
TTAACCAA | -0.282
ACCAACCA | -0.141
ACTGACGA | -0.155
AGGCTTCC | -0.0425
CTTGTTGA | -0.152
GGCCCATA | -0.0339
ACATCCGG | 0.166
AGTAGACC | -0.0214
GTAGATGA | -0.126
AGGCATAG | -0.0184
GTCTAAAA | -0.0445

Mixed results
Substance | target | assay | system | conditions | scale | endpoint | value
PhoQ, residues 284 288 289 292 302 303 TLASMF | PhoP, residues 12 14 15 18 19 SYFRT (Escherichia coli, UniProt P23836) | Sort-seq, item: YFP reporter | E. coli | PhoQ-PhoP variant library, with: 10 µM Mg2+ | reference: high Mg2+ state, higher = stronger signaling | fold induction | 2.42

Repeated from above (series 5):
Strand | E-score
CTATTCTA | -0.178
ATAGGTTA | 0.0248
AGGGATAG | -0.0773
TTAACCAA | -0.282
ACCAACCA | -0.141
ACTGACGA | -0.155
AGGCTTCC | -0.0425
CTTGTTGA | -0.152
